Assay results pooled from the literature.
Every numbered part comes from another study and shows a few of its results, in no order.

Sample 1 — technique: protein binding microarray; molecule type: double-stranded DNA, one strand shown; medium: in vitro; tested at: not given; reference: not given; direction: higher = stronger binding
Target: Histone acetyltransferase KAT6A, winged helix 1, GST fusion (KAT6A, Homo sapiens, UniProt Q92794, residues 1-85)
Notes: 8-mer, flanks averaged, mean of 2 arrays, mostly near background
Target sequence (chain): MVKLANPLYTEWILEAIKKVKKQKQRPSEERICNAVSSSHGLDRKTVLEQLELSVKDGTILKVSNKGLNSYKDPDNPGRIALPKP
The E-score of `ACAAAACT` is reported as -0.347.
The E-score of `ACATCTTA` is reported as -0.28.
`AAAAATGC` gave an E-score of -0.0244.

Sample 2 — technique: protein-binding microarray; molecule type: double-stranded DNA, one strand shown; medium: in vitro; tested at: 2200 nM top; notes: 60-bp whole probe; added: salmon DNA 0.4 mg/ml; reference: random background probes; direction: higher = stronger binding
Target: Interferon regulatory factor 7, full length, phosphomimetic (IRF7, Homo sapiens, UniProt Q92985, residues 1-503, S471D/S472D/S475D/S476D/S477D/S483D/S484D/S487D)
UniProt Q92985, sequence (whole entry, unmodified, looked up): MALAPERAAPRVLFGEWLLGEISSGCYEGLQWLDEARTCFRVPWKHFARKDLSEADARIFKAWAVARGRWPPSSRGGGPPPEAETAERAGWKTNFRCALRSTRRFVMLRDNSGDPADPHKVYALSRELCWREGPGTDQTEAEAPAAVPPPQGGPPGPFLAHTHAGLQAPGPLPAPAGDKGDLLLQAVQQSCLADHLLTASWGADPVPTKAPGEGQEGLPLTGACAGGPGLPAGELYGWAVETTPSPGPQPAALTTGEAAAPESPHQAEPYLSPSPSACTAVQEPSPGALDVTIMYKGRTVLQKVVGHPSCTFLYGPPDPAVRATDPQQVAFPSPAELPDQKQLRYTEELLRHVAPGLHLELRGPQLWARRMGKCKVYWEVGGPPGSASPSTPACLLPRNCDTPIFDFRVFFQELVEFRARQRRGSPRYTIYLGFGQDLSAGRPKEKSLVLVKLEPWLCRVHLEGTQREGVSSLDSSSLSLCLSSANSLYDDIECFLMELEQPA
For `GCCTAGCACTTAGATCTCAGTTACGATTAGTGCTAGGTCTTGATTCGCTTGACGCTGCTG`, “fitted relative affinity” read 0.418 z-score.
`GCCTAGCACTTAGGACTGGGGTATCGGTCAGTGCTAGTCTTGATTCGCTTGACGCTGCTG` — result for “fitted relative affinity”: -0.619 z-score.
`GCCTAGCACGACGATATCGGGACTGGTGACGTGCTAGTCTTGATTCGCTTGACGCTGCTG` — result for “fitted relative affinity”: -0.231 z-score.

Further values, each from its own experiment
POU: POU, POU domain (Salpingoeca helianthica)
T1: POU, POU domain (Salpingoeca helianthica); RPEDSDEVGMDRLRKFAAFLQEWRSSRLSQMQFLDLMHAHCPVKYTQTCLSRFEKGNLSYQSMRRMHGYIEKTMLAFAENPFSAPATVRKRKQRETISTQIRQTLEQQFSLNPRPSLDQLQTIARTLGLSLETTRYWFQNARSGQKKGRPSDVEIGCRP
Under “relative binding energy”, `GAGTCGTCTCGTCAGCACATGCATTCCCGTAGAGCACTCAGGTC` is recorded as 1.14 ln ratio (T1, POU, POU domain (Salpingoeca helianthica); Spec-seq; double-stranded DNA, one strand shown, in vitro; not given, whole probe, mean of replicates; reference: not given, lower = stronger binding).
With `PhoQ, residues 284 288 289 292 302 303 TYGVAM` the fold induction was 3.17 (PhoP, residues 12 14 15 18 19 FWNTL (Escherichia coli, UniProt P23836); Sort-seq, refers to: YFP reporter; E. coli; PhoQ-PhoP variant library, added: 10 µM Mg2+; reference: high Mg2+ state, higher = stronger signaling).
For `GAGTCGTCTCGTCAGCACATCTCCATCCGTAGAGCACTCAGGTC`, “relative binding energy” read 0.925 ln ratio (T1, POU, POU domain (Salpingoeca helianthica); Spec-seq; double-stranded DNA, one strand shown, in vitro; not given, whole probe, mean of replicates; reference: not given, lower = stronger binding).

For quick reference, copied from above (sample 1):
`AAAAATGC` gave an E-score of -0.0244.
